Assay results of several laboratories.
Compare with care: the assays were run in different laboratories. ± marks the error that the study gave.

| SMILES | test | system | setting | Cmax |
| --- | --- | --- | --- | --- |
| O[C@H]1CCCN[C@@H]1CCCn1cnc2c(Cl)c(Cl)ccc21 | – | healthy CYP2D6 intermediate metabolizers, plasma | oral, 150 mg single dose | 237 ng/mL |
| CC[C@H](C)CCCCC(=O)N[C@@H](CCN)C(=O)N[C@H](C(=O)N[C@@H](CCN)C(=O)N[C@H]1CCNC(=O)[C@H]([C@@H](C)O)NC(=O)[C@H](CCN)NC(=O)[C@H](CCN)NC(=O)[C@H](CC(C)C)NC(=O)[C@@H](Cc2ccccc2)NC(=O)[C@H](CCN)NC1=O)[C@@H](C)O | – | critically ill patients, plasma | intravenous, dose not given, steady state, Moderate AUC group, median | 6160 ng/mL |
| Cc1ncc2n1-c1ccc(Cl)cc1C(c1ccccc1F)=NC2 | – | healthy volunteers, plasma | oral, 5 mg, day 11, added: momelotinib, once daily 200 mg, days 4-11 | 16.5 ng/mL |
| CN[C@H](CC(C)C)C(=O)N[C@H]1C(=O)N[C@@H](CC(N)=O)C(=O)N[C@H]2C(=O)N[C@H]3C(=O)N[C@H](C(=O)N[C@H](C(=O)O)c4cc(O)cc(O)c4-c4cc3ccc4O)[C@H](O)c3ccc(c(Cl)c3)Oc3cc2cc(c3O[C@@H]2O[C@H](CO)[C@@H](O)[C@H](O)[C@H]2O[C@H]2C[C@](C)(N)[C@H](O)[C@H](C)O2)Oc2ccc(cc2Cl)[C@H]1O | – | rabbit, serum | intravenous, 7.5 mg/kg | 3000 ng/mL |
| CCN1CC2(CCN(CCc3cc(F)ccc3F)CC2)O[C@H](C)C1=O | – | ferret, plasma | intraperitoneal, 0.5 mg/kg | 346 ± 97 ng/mL |
| CCCCCOc1ccc(-c2ccc(-c3ccc(C(=O)N[C@H]4C[C@@H](O)[C@@H](OCC[N+](C)(C)C)NC(=O)[C@@H]5[C@@H](O)[C@@H](C)CN5C(=O)[C@H]([C@@H](C)O)NC(=O)[C@H]([C@H](O)[C@@H](O)c5ccc(O)cc5)NC(=O)[C@@H]5C[C@@H](O)CN5C(=O)[C@H]([C@@H](C)O)NC4=O)cc3)cc2)cc1 | – | adult patients not in ICU, plasma | intravenous, 400 mg loading, after first dose, median | 17800 ng/mL |
| Cn1ncc(-c2nc(N[C@H]3CC[C@H](N)CC3)ncc2Cl)c1CC1CC1 | HPLC-MS/MS | patients, plasma | oral, 21 mg, day 1 | 120 ng/mL |
| C[C@]1(CO)Cc2ncn(-c3ccc(C#N)c(Cl)c3)c2C(=O)O1 | – | healthy Japanese adults, plasma | 80 mg once daily, after first dose, multiple dose | 3.82 µM |
| CCCCC[C@H](O)CC[C@@H]1[C@H]2Cc3cccc(OCC(=O)O)c3C[C@H]2C[C@H]1O | – | healthy Japanese adults, plasma | inhaled, 36 µg single dose, scaled by body weight/60 kg | 0.85 ± 0.15 ng/mL |

Excerpt of the above:
| SMILES | test | system | setting | Cmax |
| --- | --- | --- | --- | --- |
| CCCCC[C@H](O)CC[C@@H]1[C@H]2Cc3cccc(OCC(=O)O)c3C[C@H]2C[C@H]1O | – | healthy Japanese adults, plasma | inhaled, 36 µg single dose, scaled by body weight/60 kg | 0.85 ± 0.15 ng/mL |
